# Published values of several laboratories.
# Numbered parts are unrelated; each lists some results of a single study.

# Block 1 — method: RNA Bind-n-Seq; form: RNA; matrix: in vitro; concentration: not given; baseline: input RNA pool; direction: higher = stronger binding
# Target: RING finger protein unkempt homolog, zinc fingers 1-6, GST-SBP tag (UNK, Homo sapiens, UniProt Q9C0B0, residues 30-357)
# Chain of UniProt Q9C0B0 (30-357, looked up): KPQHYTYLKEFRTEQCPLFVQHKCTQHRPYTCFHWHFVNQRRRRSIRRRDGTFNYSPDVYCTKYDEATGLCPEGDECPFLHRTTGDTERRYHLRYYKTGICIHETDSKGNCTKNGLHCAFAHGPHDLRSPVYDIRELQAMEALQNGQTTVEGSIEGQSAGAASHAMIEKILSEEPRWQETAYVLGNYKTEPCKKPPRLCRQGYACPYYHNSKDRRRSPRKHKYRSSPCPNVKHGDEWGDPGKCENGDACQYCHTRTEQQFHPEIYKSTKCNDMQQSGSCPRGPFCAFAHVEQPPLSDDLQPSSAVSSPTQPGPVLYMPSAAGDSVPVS
# Notes: RNA with constant flanks, human-mouse chimeric sites, ends assumed
# Constant ends, left off below: GGGAGUUCUACAGUCCGACGAUC … CAACAGAGGAUUGAGCAUCA
Sequence,bound/input enrichment
AAAGUGGACUAUGGUGAGUACAUGGAUAAAAACAAUGUGAGGCGGCAAGCAACAACAAUCAUAGCUGAUAACAUUAUAUUUCUGAGUGACCAGACGAAAGAAAAGGCAUAGAACGGAUGA,1.67 ratio
GUGACUGGUGUUAAGAUUUCCCCUCAGCAAAGAAGUGUAGCAGUGACCAUAAUUCCAUCUGUGGUGAGUGCCAGUCAGAUUGUGGAGCUGGUCCCAGACCUCAGUUUAGACAUGGGAACU,0.284 ratio
UUGAAAACUGAUUCAAGUAAGUUUGAGUAUCACAAUGUUAGCUUUCUAAUUCCAUAAAAGUACUUGGUUUUUACAGUUUAUAAUCUGCAAUCCAUCAAGCGCCAUUUGUAAAGAGCAACU,0.41 ratio
UAUAUCACCAAUGUCCUACAAAAUCCUGAUUUGGCUCUGAGAAUGGCUGUGCGGAACAACUUAGCUGGUGCUGAAGAACUCUUUGCCCGGAAAUUUAAUGCUCUUUUCGCCCAGGGAAAC,0.426 ratio
UUACCCGAAAAUGAAGAUGAGCUGGAGAGCACCAAUAGGCGCUACACCAAGAGGGACUGCAGCACUUUCCUCAGAACUAGUGAGACGGGCAUCGUGGACCAGGUCAUGGUCACUCUCAAC,0.255 ratio
ACCUCCCCCUCCCGCCUGCUUUUUGAACCGCUUUUUGGAAAGUUUUUGGCGUUUCUUUUCCUUCCCCAUACAAAGUGAUUACAGUUUCCCCCGCAAGGGUCUAUCGAAGGGCUUGACGGA,0.521 ratio
ACUCAGAGAUUAUAUUCCCAAAGUGCUGGGAGUAAAGGUGUGGCCACCACACCUAACUUGAUGGAUAUUUUAUAAAGUUAAUAUGAAUCUUCCUGUUCGUCCAGGGAAGAAAGAUUUGUU,0.511 ratio
UCUGGUCACACUCGUGUGUAUGGUGUUUGCUUUGUGGACACUUCACUGGGCAAGUUUUUCAUCGGCCAGUUUUCAGAUGACCGCCACUGUUCCAGAUUUAGGACGCUAGUGGCACACUAU,0.19 ratio

# Block 2 — method: protein-binding microarray; form: double-stranded DNA, one strand shown; matrix: in vitro; concentration: 250 nM; notes: 60-bp whole probe; added: salmon DNA 0.4 mg/ml; baseline: random background probes; direction: higher = stronger binding; constant ends, left off below: GCCTAGCAC … GTCTTGATTCGCTTGACGCTGCTG
# Target: Interferon regulatory factor 5, full length, phosphomimetic (IRF5, Homo sapiens, UniProt Q13568-2, residues 1-514, K96S/S451D/S453D/S456D/S462D)
Sequence,log fluorescence [z-score]
TTAGGACGGCTTTTCCTTTAGTGCTAG,-0.113
TTAGGTCTAGGTATCGGTTAGTGCTAG,4.1
TTGGTTCTCAGCTTGGGGCAGTGCTAG,-0.405
GACGGACTGCTATTCCTGACGTGCTAG,-0.454
CCCAGACTTGATTTTGGTCTGTGCTAG,0.187
GACGGTATCCCACTGCTGACGTGCTAG,-0.187
TTAGATATCAGACTGGATTTGTGCTAG,0.374
GACGGTAGCCTTTTCCTGACGTGCTAG,-0.215
TTAGATATCCGGACTGGATTAGTGCTA,-0.161
GACGGACTGCTTTTCCCGACGTGCTAG,-0.19
CCCTGCGTGGTCTCGAGCTGGTGCTAG,-0.807
TTCCTTCTTGAACTCTTTACGTGCTAG,0.932
TTAGGTCTCGGTCTCGGTAAGTGCTAG,0.821
ATCTTCATGAAATTTTAATAAGTGCTA,0.796
TTAGGCATCGACACTGGGTTAGTGCTA,-0.0338
GGTGGTGATGGTGAGTAAGAGTGCTAG,-0.592
GACGGGCTGCTTCTCCTGACGTGCTAG,-0.739
GACGGACTGCTTTTCGTGACGTGCTAG,0.181
GACGTACTGAGTCTCGAGACGTGCTAG,-0.274

# Block 3 — method: RNA Bind-n-Seq; form: RNA; matrix: in vitro; concentration: 200 nM; notes: whole 134-nt RNA, ends assumed; added: 150 mM KCl; baseline: input library; direction: higher = stronger binding
# Target: Fragile X messenger ribonucleoprotein 1, C-terminal low-complexity region (Fmr1, Mus musculus, UniProt P35922)
# Constant ends, left off below: GGGAGUUCUACAGUCCGACGAUC … UGGAAUUCUCGGGUGUCAAGG
Sequence,log2 enrichment
CACAGACAACACGCACCCACACAGACACAGAGGGAAGGGGUUGGGAUGGGGACAGGGUGCACAGCAGGGCGGUGUAGGACCCCAGCCCCU,1.04
AAGUCCUGUGCUACACAUCGUAUGUACCGAAUCGGCCCCGGCCCCGGGCCCCGGGGAAAGUAUUAUGUUACGCCGUUCGGAUCUGCACUU,-0.396
UGGCCCUCAAGCACUGCACAGAGGCCCUUCUUUCUCUUGGCCAGUACUCCAUGGCAGACUUCACAGGGCCUUGUCCAUUGGAAAUAGAAC,-1.26
CAAGUCCUGUGCUACACAUCGUAUGUACCGAAUCGGGUGGGUGGGUUUUUUUGGGAAAGUAUUAUGUUACGCCGUUCGGAUCUGCACUUC,1.03
AAGUCCUGUGCUACACAUCGUAUGUACCGAAUCGGGAAAAAAAGGGAAAGGGUGGGAAAGUAUUAUGUUACGCCGUUCGGAUCUGCACUU,0.733
CCUGUGCUACACAUCGUAUGUACCGAAUCGGAAAAAAAGGGGAAAAAAAGGAAAAAAAGGAAAGUAUUAUGUUACGCCGUUCGGAUCUGC,-0.566
CACAGACAACACGCACCCACACAGACACAGAGGGAAGGGGUUGGGAUGGGGACAGGGUGCACAGUAGGGCGGGGUAGGACCCCAGCCCCU,1.26
CCUGUGCUACACAUCGUAUGUACCGAAUCGGGGUUUUUGGGGUUUUUUUGGGGAAAGGGGAAAGUAUUAUGUUACGCCGUUCGGAUCUGC,0.561
GUCCUGUGCUACACAUCGUAUGUACCGAAUCGGGUUUUUUUGGGUUUUUUUGGGAGGGAAAGUAUUAUGUUACGCCGUUCGGAUCUGCAC,0.297

# Block 4 — method: RNA Bind-n-Seq; form: RNA; matrix: in vitro; concentration: 365 nM; baseline: no-protein control; direction: higher = stronger binding
# Target: RNA binding protein fox-1 homolog 2, RRM domain, GST-SBP tag (RBFOX2, Homo sapiens, UniProt O43251-10, residues 100-194)
# Notes: natural RNA segment, single round, ends assumed
# Constant ends, left off below: GGGAGUUCUACAGUCCGACGAUC … UGGAAUUCUCGGGUGCCAA
# Construct (chain): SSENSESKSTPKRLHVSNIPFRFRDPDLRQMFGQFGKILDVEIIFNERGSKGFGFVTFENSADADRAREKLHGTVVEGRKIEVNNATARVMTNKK
Sequence,RBNS enrichment (R)
AAAUGGUGUGGCCCAGGGCCACAUAACAGACUGCUGUCCUGGGCUGCCUCAGGUCCCGAGUAACUUAUGUUCAAUGUGCCAACACCAGUGGGGAGCCCGCAGGCCUAUGU,0.426
UAGCCCCACCCAGGGGGAGGGGCUUAGCUGCUGAAAGUCCACCUUGCUAGAGCUAGGGUGGCUCUUGCAGCUUAGCACCCCCCAAGAUCCUUGUCCACCCCUCCCCUGGC,0.38
CUCACUAGCUCGCGGGGCCACUUGCUGCCCAUGUGACGAAUAACAGAAGAUCUUAUCUUGCCAGGCCGUGGAGAGCUACAAGAAAGAUUCCUGAGAAAUGUCCAACUGCU,1.66
CAUGGACCCCCUGAGACUAUCAUUAUUACCUCCUAGGGCCAGGAAGCCAGGUAGGUAGUCUGAGUCAGGAUUGGAUCAACAGCCUCCUCUCUUGGGGACUCUCAAGAGCC,0.376
CCUGCCUAAGCAGGGUGGGGGCAGAGCCAUGACAUUUUUGGUUUAAAGGAGCCUUCUCAUCUCUGGCCGAGAACACUGCUGGGCUCCCAGGUAGCUGAAGGCCUCAGCCC,0.312
UUAUCCUUCUCCUUUGAAAGAUUUUCAAUAUUUUAGUAUAAUAAAGAGCUGUAUGUUGAGCCAUCUGUGUCGGGAUUUGUGUUCUCCUGUUCUUUUUCAGUUCCUCUCUA,0.736
AGAACAAGUUGCUUAUAAUUGAGAGUGAGAGCAUGCCUUAAAUGUCAUGAUGGUAUGUGAAUAUGUGUGUAUGUUGCAAACAGGAAAUGCACUUGUAAACAUACGACAUG,7.52
GUUUAUGAGCAUCUGGAAGAGCAAAUUCUAACUCCUGUCCAAGUGACAGACUGGAAUAUUUCUUAGGCAAUGCAAGGCAAACAUUCACAUGAUCCACCGUUUUAACACCU,0.224

# For quick reference, copied from above (block 4):
Sequence,RBNS enrichment (R)
CCUGCCUAAGCAGGGUGGGGGCAGAGCCAUGACAUUUUUGGUUUAAAGGAGCCUUCUCAUCUCUGGCCGAGAACACUGCUGGGCUCCCAGGUAGCUGAAGGCCUCAGCCC,0.312
CAUGGACCCCCUGAGACUAUCAUUAUUACCUCCUAGGGCCAGGAAGCCAGGUAGGUAGUCUGAGUCAGGAUUGGAUCAACAGCCUCCUCUCUUGGGGACUCUCAAGAGCC,0.376
UAGCCCCACCCAGGGGGAGGGGCUUAGCUGCUGAAAGUCCACCUUGCUAGAGCUAGGGUGGCUCUUGCAGCUUAGCACCCCCCAAGAUCCUUGUCCACCCCUCCCCUGGC,0.38
